Assay results gathered from unrelated publications.
Every numbered part comes from another study and shows a few of its results, in no order.

Study 1
Target: RNA binding protein fox-1 homolog 2, RRM domain, GST-SBP tag (RBFOX2, Homo sapiens, UniProt O43251-10, residues 100-194)
Technique: RNA Bind-n-Seq
Form: RNA
Sample: in vitro
Concentration: 365 nM
Notes: natural RNA segment, single round, ends assumed
Reference: no-protein control
Direction: higher = stronger binding
Construct (chain): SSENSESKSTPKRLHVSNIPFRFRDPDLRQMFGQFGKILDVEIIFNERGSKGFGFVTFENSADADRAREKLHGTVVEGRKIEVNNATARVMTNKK
Oligonucleotide | RBNS enrichment (R)
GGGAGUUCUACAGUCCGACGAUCUCUACUUGCAGGUGGUUUGCUGAGCAGAGAGCUGAGGGACCCUCUUGACUGGGUAGGGGUCUUGUCCAUUUGUGGGGGAGGAUGUGGUGAAGGUGGACCUUCUACAAUCUUGGAAUUCUCGGGUGCCAA | 0.869
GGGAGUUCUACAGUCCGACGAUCUGGCCUGAGUGUGGAGGACAAAGGAGGUCCAUGUCCUGCUUGCUGGAGACAGCUGGCCAGAAUCGUAUAUGCUGGUUUUAUAACUGUUUUAUUAUUAAAGAGAAGAAAACUGGAAUUCUCGGGUGCCAA | 0.548
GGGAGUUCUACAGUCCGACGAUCUCCUCAUUGCUGGGACUGGGGACGGGGUGGAUUAGAAACAAAAAUUCUGUUUCUGAGGACUUUUAGCAAGAGACAGAAAAUCCUGCCAUUCUGGUUGGAAAUUAUAUAAAUGGAAUUCUCGGGUGCCAA | 0.898
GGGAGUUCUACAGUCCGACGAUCCGAUGGAAGAAACCUACUUCCCUAUCCUGCCUAUCCUGCCCCUCAACCUCUUCAUUCCUAAUUCCUCCAAGGUACUAUUUCAUAGUUGCUCUGAAUUAAGGAUUUCAGGUUGGAAUUCUCGGGUGCCAA | 0.297
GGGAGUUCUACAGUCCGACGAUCUUUAAGUCCUUCCUUUGAUAAUACUUCAAAACAUACACAGCUUUGCUUACUGAAUUAUUUUUGCAAAUAAUACAAGGAGGGGAAACUAACUUGCUACUAGUGUUGUUAAUUGGAAUUCUCGGGUGCCAA | 0.245
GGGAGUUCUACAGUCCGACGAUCCCUGGGUGCAGUAGGCGCUGGGUCCUCCUGACCUCUGUUUCACUGUUUGUGGUAAGGUAGCCACACCUGGAGCUCACGUGUAACCUGGAGCGCUGUGCUACCAGUAGCUUUGGAAUUCUCGGGUGCCAA | 0.377
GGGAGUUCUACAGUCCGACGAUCGCUUAUGUUUGAUCAUCGGCCAAGGUCCUGGCGAGAACUGCCUCUGCGGCUAGCUGAUUUUGGGGUACUUCAUAGGAACGAGCUGUCUGGAGCACUCACAGGACUCACCCUGGAAUUCUCGGGUGCCAA | 0.22
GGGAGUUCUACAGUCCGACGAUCCCGUCUGUCUCCUUUCACCUCUGCGCCAGGUCGGUCCUCCCUGCCAACCUUCCCCAGCUCCAAUAUGUAGCAGUCUCUCUGGAUGGCGGAGAGUGAAGGAGACGGAGAAAUGGAAUUCUCGGGUGCCAA | 0.536
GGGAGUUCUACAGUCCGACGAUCAAAAUUUCUUAAAGAUUUUGGUAAGAAAUAGAAGUCCACAUACAAGCAUUGAGGAAACUGAAAAAUCUUUGUAAGACCCUUAAUGGCUAAAGCCAUUGGCUGUAAUGAGUUGGAAUUCUCGGGUGCCAA | 0.553

Study 2
Target: Prothrombin, mature alpha-thrombin (F2, Homo sapiens, UniProt P00734)
Technique: aptamer microarray, sandwich
Form: DNA with 2'F-ANA
Sample: in vitro
Concentration: 200 nM
Notes: whole 15-mer aptamer, many near background
Together with: Cy3 exosite-II aptamer, 400 nM
Direction: higher = stronger binding
Oligonucleotide: GGTTGGTGTGGTTGG
Modification | mean fluorescence intensity [a.u.]
2'F-ANA at 3 4 5 6 7 8 10 13 | 503
2'F-ANA at 8 10 11 | 163
2'F-ANA at 1 2 5 6 8 9 10 14 15 | 50.1
2'F-ANA at 1 2 3 5 9 12 13 14 | 42.5
2'F-ANA at 2 3 5 7 8 9 10 13 14 | 60.2
2'F-ANA at 2 3 4 10 12 13 15 | 275
2'F-ANA at 3 4 5 7 10 12 13 14 15 | 51.7
2'F-ANA at 2 3 4 5 6 8 11 12 13 | 95.1
2'F-ANA at 3 4 5 7 8 9 12 | 262
2'F-ANA at 4 5 10 12 15 | 58.3
2'F-ANA at 1 4 9 11 13 14 | 56
2'F-ANA at 1 4 6 7 8 10 12 13 14 15 | 50.3
2'F-ANA at 1 2 3 4 5 6 8 9 10 11 12 14 | 51.1
2'F-ANA at 1 2 4 5 12 14 | 43.1
2'F-ANA at 2 3 4 5 6 8 9 | 99.1
2'F-ANA at 1 2 3 4 5 6 8 10 12 14 15 | 54.8

Study 3
Target: Centromere-binding protein 1, full length, His-tagged (CBF1, Saccharomyces cerevisiae, UniProt P17106, residues 1-351)
UniProt P17106, sequence (whole entry, looked up): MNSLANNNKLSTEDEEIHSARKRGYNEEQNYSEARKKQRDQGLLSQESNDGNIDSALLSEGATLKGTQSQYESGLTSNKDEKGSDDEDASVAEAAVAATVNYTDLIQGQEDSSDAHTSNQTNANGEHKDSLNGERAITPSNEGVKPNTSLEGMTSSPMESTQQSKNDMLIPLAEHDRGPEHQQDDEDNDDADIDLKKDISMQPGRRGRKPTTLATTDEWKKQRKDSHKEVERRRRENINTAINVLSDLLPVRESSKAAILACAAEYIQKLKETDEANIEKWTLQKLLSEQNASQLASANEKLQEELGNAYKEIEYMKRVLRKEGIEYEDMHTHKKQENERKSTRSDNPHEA
Technique: competition protein-binding microarray
Form: double-stranded DNA, one strand shown
Sample: in vitro
Concentration: 2 µM
Notes: whole 60-bp probe, lowest competitor level
Together with: Pho4 competitor, 0.05 µM
Direction: higher = stronger binding
Oligonucleotide | fluorescence intensity
AAAGCGGTAATTTGCGACGTGGGTGCAGATATCTATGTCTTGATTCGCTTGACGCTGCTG | 84.5 a.u.
ATTCAAGCCGGTGAACATGTGGAGGTTAACGGTTCCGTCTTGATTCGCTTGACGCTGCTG | 97.1 a.u.
TTTCGATAATGTTAAGGAGTTTGAATTAACTACCAGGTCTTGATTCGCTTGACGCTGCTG | 84.5 a.u.
CTTCTGTAAATTTGCACTGTGGGTGGACGCGCCCCGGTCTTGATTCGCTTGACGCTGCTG | 83.6 a.u.
ATCCCATTGGGTAAAAACGTGGTCGTCAAATGGCAAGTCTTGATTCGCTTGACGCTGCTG | 233 a.u.
CTTTCCCGATCTTGCGCAGTGGGTGTAGCACATTTGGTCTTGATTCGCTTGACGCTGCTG | 73.7 a.u.
CTTCTGTAAATTTGAGAAGTGGGTGGACGCGCCCCGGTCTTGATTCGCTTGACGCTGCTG | 73.8 a.u.
TGAAGGATTTGTCCACACGTGGAATCAACATATCTGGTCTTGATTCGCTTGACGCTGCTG | 465 a.u.
CTAACGAAGGTTTGCGGCGTGGGTGACAAGCCAAGTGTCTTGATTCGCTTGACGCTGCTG | 58.1 a.u.
AAGTCGTTAGGGCCAATCGTGGGACGTATGCTATTGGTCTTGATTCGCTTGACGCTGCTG | 65.3 a.u.
AAACGTAGTTACGGCCACGTGGGTAAGATATGAAAGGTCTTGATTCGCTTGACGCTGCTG | 1310 a.u.
TGAACTTGGACAAACCTCGTGGTGAAATTTAAAAATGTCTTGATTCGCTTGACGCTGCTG | 163 a.u.
CTTTTATGATCGAGTCACCTGACGAACCATTCTTGAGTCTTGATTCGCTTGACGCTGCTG | 1830 a.u.
ATAATTGTGTACCGACACGTGCAAATTTGGTACGAAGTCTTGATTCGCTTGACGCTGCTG | 1910 a.u.
AATGCTTGAAAAATTCTCGTGCAAACGGTCCCCTACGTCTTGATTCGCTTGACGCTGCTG | 94.4 a.u.
GATTTGAATACAACCGTCGTGCCGAACATCGCGGTTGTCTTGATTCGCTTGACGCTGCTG | 74.6 a.u.
TGCCCGCAGTGGGTCCACGTGAAATGCGAGCCTTTGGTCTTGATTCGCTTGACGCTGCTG | 366 a.u.
TACATTTCTTCCCCTCTCGTGATGGCTAGATAATAGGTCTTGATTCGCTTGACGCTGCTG | 187 a.u.
CACATTATCAAACGTCACCTGCGTATTATCAACCGGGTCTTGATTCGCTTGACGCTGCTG | 237 a.u.
TTGTTGAGTAATCGGCACGTCACCGCACAACAGCCGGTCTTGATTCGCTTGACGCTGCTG | 60.5 a.u.
CAACGATATCTTTATCAGGTGATTCTTACGCGCCAGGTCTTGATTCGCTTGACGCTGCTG | 888 a.u.
CTTTCCCGATCTTGGCAAGTGGGTGTAGCACATTTGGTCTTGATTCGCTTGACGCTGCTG | 59.9 a.u.
CTTTCCCGATCTTGAGGGGTGGGTGTAGCACATTTGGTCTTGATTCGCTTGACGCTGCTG | 78.4 a.u.
TGCGCAACAACTTGGCCGGTGGGTGTATGTCTAGAAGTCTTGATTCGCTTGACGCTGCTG | 70.2 a.u.
AAATTACTAAGTTGCGAAGTGGGTGACGCCGTATGAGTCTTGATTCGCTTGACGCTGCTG | 68.3 a.u.

Study 4
Target: Ras GTPase-activating protein-binding protein 1, C-terminal RGG region (G3BP1, Homo sapiens, UniProt Q13283)
UniProt Q13283, sequence (whole entry, looked up): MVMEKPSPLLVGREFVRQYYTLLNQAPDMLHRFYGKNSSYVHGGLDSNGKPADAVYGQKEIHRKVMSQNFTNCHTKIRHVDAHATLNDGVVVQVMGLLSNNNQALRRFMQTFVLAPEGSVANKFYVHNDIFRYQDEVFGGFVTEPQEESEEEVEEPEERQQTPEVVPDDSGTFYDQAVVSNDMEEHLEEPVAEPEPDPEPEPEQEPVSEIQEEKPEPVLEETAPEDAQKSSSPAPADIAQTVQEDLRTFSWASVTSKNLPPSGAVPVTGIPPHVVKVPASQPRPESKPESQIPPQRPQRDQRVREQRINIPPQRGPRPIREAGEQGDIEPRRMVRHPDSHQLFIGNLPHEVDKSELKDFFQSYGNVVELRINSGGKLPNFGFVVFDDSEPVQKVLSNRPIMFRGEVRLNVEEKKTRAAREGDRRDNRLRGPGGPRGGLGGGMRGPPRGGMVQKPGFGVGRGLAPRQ
Technique: RNA Bind-n-Seq
Form: RNA
Sample: in vitro
Concentration: 1 µM
Notes: whole 134-nt RNA, ends assumed
Together with: 150 mM KCl
Reference: input library
Direction: higher = stronger binding
Oligonucleotide | log2 enrichment
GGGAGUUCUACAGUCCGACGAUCCAAGUCCUGUGCUACACAUCGUAUGUACCGAAUCGGGUGGGUUUUUUUGGGUGGGAAAGUAUUAUGUUACGCCGUUCGGAUCUGCACUUCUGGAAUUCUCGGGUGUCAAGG | 0.444
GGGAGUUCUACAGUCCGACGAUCGUCCUGUGCUACACAUCGUAUGUACCGAAUCGGGGAAAAGGGGAAAAGGGGAAAAGGGGAAAGUAUUAUGUUACGCCGUUCGGAUCUGCAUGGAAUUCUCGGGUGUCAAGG | 2.11
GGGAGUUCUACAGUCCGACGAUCUCCUGUGCUACACAUCGUAUGUACCGAAUCGGGGCCCCCGGGCCCCCGGGGCCCCCGGGGAAAGUAUUAUGUUACGCCGUUCGGAUCUGCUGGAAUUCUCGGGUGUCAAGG | -1.69
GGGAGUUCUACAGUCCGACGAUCUGGCCCUGGUGGCAUGCGGGGAGGAAGAGGUGGCCUCAUGGAUCGUGGUGGACCCGGUGGAAUGUUCAGAGGUGGCCGUGGUGGAGACAGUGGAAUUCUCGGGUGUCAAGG | 1.74
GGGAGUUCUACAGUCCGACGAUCAAGUCCUGUGCUACACAUCGUAUGUACCGAAUCGGGAAAGGGAAAAAGGGAAAGGGAAAGUAUUAUGUUACGCCGUUCGGAUCUGCACUUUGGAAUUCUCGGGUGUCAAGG | 0.948
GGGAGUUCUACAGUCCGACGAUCAAGUCCUGUGCUACACAUCGUAUGUACCGAAUCGGGGAAAAAGGGGUGGGGUGGGGAAAGUAUUAUGUUACGCCGUUCGGAUCUGCACUUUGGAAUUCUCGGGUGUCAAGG | 1.55
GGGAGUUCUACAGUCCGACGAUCACCAUGCAGGUGGGCAUCUUUGGGAAGUGGGGCAAGGGGGGGAUAGGGAGGGGGGUAACACUUUGGGAACAGGUGGGCCCAGGUCGUUUCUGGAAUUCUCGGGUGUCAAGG | 2.73
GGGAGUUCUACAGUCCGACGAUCUGGCCCUGGUGGCAUGCGGGGAGGAAGAGGUGGCCUCAUGGAUCGUGGUGGUCCCGGUGGAAUGUUCAGCGGUGGCCGUGGUGGAGACAGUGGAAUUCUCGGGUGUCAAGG | 2.75
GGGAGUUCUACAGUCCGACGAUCUAACUUUAGAGGAGGAUCUGAUGGAUAUGGCAGUGGACGUGGAUUUGGGGAUGGCUAUAAUGGGUAUGGAGGAGGACCUGGAUGUGGCAAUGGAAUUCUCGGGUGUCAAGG | -1.08
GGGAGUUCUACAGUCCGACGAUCCUCAAGUCCUGUGCUACACAUCGUAUGUACCGAAUCGGAAAAAGGUUUGGAGGAAAGUAUUAUGUUACGCCGUUCGGAUCUGCACUUCCAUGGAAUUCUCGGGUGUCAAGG | -1.34

A few entries again (study 3):
Oligonucleotide | fluorescence intensity
CAACGATATCTTTATCAGGTGATTCTTACGCGCCAGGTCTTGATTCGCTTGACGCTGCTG | 888 a.u.
CTTTCCCGATCTTGGCAAGTGGGTGTAGCACATTTGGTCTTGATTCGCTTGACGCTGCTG | 59.9 a.u.
CTTTCCCGATCTTGAGGGGTGGGTGTAGCACATTTGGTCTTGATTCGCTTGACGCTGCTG | 78.4 a.u.
TGCGCAACAACTTGGCCGGTGGGTGTATGTCTAGAAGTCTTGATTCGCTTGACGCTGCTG | 70.2 a.u.
